Experimental data pooled from the literature.
Numbered parts are unrelated; each lists some results of a single study. Changes are numbered by the printed parent chain.

Set 1 — technique: protein binding microarray; molecule type: double-stranded DNA, one strand shown; matrix: in vitro; tested at: not given; reference: not given; reading: higher = stronger binding
Target: Histone acetyltransferase KAT6A, both winged helices, GST fusion (KAT6A, Homo sapiens, UniProt Q92794, residues 1-181)
Setting: 8-mer, flanks averaged, mean of 2 arrays, mostly near background
Residues (chain): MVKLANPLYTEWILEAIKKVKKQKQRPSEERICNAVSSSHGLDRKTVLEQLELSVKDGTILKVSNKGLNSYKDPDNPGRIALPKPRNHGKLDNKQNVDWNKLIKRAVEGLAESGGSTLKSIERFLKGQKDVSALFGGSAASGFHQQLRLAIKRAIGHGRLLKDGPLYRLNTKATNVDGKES
`CAGATTTC` has an E-score of -0.0714.
`AAACCAGG` gave an E-score of -0.0937.
`CTATTGCC` has an E-score of 0.0404.
`GATATAGA` gave an E-score of -0.0206.
With `ACCGGCGC` the E-score was 0.348.
`ATCCGATC` gave an E-score of 0.0512.
With `CAAGATTG` the E-score was -0.125.
The E-score of `CGCCCGTA` is reported as 0.275.
`ACTCTCCA` gave an E-score of -0.266.
With `CAAACGAG` the E-score was -0.123.

Set 2 — target: CCND2, cyclin fold, Cln2 fusion (human); technique: yeast growth competition, sequencing; matrix: yeast; setting: weak parent motif; reference: not given; reading: higher = stronger binding
Starting sequence: AKAP12 docking peptide (human); GSPLKKLFTSTGL
`GSPLKKAFTSTGL [L7A]`: “normalised enrichment score” -0.0887.
Under “normalised enrichment score”, `GAPLKKLFTSTGL [S2A]` is recorded as 0.498.
`GSPLKKLATSTGL [F8A]`: “normalised enrichment score” -0.0783.
`GSPLKKLFASTGL [T9A]`: “normalised enrichment score” -0.0393.
Under “normalised enrichment score”, `GSPLKKLLTSTGL [F8L]` is recorded as -0.788.
`GSPLKKLFTSAGL [T11A]` — result for “normalised enrichment score”: -0.567.
Under “normalised enrichment score”, `GSALKKLFTSTGL [P3A]` is recorded as 0.226.

Set 3 — technique: DHFR PCA, deep sequencing; matrix: yeast; with: (+)-ABA 4.8 µM; reference: wild-type fitted maximum; reading: higher = stronger binding
Target: ABI1, truncated, D143A, DHFR fusion (Arabidopsis thaliana)
Setting: methotrexate growth selection, single substitutions
Starting sequence: PYL1, truncated, DHFR fusion (Arabidopsis thaliana); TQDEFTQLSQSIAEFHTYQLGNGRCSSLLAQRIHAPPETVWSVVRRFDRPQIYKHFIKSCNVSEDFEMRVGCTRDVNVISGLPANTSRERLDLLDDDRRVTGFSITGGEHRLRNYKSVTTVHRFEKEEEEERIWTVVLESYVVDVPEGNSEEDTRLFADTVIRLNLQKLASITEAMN; partner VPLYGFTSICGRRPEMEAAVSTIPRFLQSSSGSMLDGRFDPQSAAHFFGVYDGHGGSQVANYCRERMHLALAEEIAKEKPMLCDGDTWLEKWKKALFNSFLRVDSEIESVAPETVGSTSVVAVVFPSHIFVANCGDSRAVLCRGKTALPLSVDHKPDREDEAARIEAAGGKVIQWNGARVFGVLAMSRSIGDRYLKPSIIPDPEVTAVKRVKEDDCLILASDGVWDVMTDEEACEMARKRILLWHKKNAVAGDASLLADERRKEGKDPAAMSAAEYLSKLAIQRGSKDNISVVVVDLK
`D153R` — result for “relative binding score”: -5.43%.
Under “relative binding score”, `L169E` is recorded as -10.5%.
`Y18L`: “relative binding score” 22.5%.
`W41E`: “relative binding score” -0.756%.
For `T39R`, “relative binding score” read 67.5%.
Under “relative binding score”, `V121N` is recorded as -16.2%.
For `A30I`, “relative binding score” read 67.8%.
`E147Q` — result for “relative binding score”: 63.7%.
`F15K` — result for “relative binding score”: -0.679%.
For `F56G`, “relative binding score” read 2.35%.
`V145W`: “relative binding score” -4.28%.
For `G23S`, “relative binding score” read 54.4%.
`A30T` — result for “relative binding score”: 70.1%.

Other studies, line by line
With `PhoQ, residues 284 288 289 292 302 303 SNGLAW` the fold induction was 12.4 (PhoP, residues 12 14 15 18 19 MHTVL (Escherichia coli, UniProt P23836); Sort-seq, measured: YFP reporter; E. coli; PhoQ-PhoP variant library, with: 10 µM Mg2+; reference: high Mg2+ state, higher = stronger signaling).
